Measurements from different studies.
Lines come from different studies, so protocols differ. Several values in a cell are separate wells, animals, samples, runs or records. ± marks the error that the study gave.
PIK3CA: Phosphatidylinositol 4,5-bisphosphate 3-kinase catalytic subunit alpha isoform (PIK3CA, Homo sapiens, UniProt P42336)
Chain of UniProt P42336 (whole entry, looked up): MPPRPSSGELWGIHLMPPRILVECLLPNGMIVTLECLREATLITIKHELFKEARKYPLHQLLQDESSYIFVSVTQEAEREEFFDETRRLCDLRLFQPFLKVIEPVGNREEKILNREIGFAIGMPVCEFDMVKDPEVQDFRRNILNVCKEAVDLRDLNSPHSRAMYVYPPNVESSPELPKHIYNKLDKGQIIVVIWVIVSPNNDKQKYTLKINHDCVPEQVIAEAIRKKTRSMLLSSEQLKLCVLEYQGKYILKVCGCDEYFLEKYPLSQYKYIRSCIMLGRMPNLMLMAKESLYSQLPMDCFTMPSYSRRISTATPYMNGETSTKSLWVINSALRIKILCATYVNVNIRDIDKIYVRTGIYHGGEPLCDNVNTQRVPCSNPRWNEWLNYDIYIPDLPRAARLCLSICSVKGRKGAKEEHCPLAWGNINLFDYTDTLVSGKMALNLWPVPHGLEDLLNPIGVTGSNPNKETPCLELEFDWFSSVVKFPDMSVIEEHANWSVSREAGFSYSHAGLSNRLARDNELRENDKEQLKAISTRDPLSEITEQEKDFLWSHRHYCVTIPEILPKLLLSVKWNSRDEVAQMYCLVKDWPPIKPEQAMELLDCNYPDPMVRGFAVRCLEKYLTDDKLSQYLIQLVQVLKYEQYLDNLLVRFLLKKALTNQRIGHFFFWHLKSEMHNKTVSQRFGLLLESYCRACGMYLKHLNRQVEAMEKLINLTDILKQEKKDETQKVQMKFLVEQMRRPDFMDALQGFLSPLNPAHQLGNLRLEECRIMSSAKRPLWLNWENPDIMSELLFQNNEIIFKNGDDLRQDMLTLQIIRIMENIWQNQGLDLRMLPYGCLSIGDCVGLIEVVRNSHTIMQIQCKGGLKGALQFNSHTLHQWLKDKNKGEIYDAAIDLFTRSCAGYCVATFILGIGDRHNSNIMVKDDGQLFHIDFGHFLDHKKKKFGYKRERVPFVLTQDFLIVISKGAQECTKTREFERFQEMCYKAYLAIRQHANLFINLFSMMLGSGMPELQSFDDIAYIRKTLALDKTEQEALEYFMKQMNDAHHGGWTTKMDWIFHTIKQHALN
MAPK10: Mitogen-activated protein kinase 10 (MAPK10, Homo sapiens, UniProt P53779)
Chain of UniProt P53779 (whole entry, unmodified, looked up): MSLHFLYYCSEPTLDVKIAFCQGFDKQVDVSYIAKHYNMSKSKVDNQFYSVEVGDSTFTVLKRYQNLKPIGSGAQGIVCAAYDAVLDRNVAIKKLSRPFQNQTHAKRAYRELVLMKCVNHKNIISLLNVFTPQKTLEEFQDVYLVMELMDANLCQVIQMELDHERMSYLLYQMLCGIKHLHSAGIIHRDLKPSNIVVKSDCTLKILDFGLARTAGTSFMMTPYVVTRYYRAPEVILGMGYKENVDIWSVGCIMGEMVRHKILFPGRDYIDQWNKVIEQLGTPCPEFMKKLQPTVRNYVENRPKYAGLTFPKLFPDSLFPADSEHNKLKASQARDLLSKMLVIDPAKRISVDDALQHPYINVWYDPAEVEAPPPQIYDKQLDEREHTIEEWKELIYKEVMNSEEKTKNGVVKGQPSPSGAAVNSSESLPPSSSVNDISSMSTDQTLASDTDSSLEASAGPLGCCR
ESR2: Estrogen receptor beta (ESR2, Homo sapiens, UniProt Q92731)
Chain of UniProt Q92731 (whole entry, looked up): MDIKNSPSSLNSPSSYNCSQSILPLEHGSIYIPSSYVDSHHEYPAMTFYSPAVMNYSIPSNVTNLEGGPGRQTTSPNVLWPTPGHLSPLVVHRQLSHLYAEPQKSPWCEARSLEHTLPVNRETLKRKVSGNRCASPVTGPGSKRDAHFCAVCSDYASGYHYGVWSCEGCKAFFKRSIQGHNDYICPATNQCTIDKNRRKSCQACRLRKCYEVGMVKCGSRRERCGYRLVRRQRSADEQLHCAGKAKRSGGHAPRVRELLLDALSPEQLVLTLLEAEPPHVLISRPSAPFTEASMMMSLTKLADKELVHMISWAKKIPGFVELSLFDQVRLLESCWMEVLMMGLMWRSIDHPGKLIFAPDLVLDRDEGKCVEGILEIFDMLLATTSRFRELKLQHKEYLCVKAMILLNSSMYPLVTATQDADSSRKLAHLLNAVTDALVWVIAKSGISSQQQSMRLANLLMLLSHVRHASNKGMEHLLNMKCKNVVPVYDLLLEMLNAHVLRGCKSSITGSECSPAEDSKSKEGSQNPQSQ
ELANE: Neutrophil elastase (ELANE, Homo sapiens, UniProt P08246)
Chain of UniProt P08246 (whole entry, looked up): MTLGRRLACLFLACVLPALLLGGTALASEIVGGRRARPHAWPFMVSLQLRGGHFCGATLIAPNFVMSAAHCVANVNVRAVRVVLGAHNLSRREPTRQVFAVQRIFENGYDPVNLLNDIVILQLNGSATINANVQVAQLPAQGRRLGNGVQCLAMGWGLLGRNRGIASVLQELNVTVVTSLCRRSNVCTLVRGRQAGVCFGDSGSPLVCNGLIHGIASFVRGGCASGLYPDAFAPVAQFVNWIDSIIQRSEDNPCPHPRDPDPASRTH
STS: Steryl-sulfatase (STS, Homo sapiens, UniProt P08842)
Chain of UniProt P08842 (whole entry, looked up): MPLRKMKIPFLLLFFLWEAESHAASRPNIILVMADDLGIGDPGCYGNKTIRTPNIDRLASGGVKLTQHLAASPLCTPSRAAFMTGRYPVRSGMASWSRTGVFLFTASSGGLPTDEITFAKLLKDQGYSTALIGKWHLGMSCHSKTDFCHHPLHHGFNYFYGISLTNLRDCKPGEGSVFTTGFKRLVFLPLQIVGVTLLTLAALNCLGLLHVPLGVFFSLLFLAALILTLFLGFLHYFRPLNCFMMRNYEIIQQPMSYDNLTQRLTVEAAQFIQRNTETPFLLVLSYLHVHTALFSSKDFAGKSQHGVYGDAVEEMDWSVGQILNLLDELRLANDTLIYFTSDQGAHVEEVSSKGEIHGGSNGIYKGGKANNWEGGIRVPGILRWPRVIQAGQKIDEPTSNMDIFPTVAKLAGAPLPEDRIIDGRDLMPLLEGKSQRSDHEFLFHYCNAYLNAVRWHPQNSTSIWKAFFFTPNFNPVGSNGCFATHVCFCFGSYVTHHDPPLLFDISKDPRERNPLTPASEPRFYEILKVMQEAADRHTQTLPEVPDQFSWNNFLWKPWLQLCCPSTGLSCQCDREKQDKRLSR
CHRM1: Muscarinic acetylcholine receptor M1 (CHRM1, Homo sapiens, UniProt P11229)
Chain of UniProt P11229 (whole entry, looked up): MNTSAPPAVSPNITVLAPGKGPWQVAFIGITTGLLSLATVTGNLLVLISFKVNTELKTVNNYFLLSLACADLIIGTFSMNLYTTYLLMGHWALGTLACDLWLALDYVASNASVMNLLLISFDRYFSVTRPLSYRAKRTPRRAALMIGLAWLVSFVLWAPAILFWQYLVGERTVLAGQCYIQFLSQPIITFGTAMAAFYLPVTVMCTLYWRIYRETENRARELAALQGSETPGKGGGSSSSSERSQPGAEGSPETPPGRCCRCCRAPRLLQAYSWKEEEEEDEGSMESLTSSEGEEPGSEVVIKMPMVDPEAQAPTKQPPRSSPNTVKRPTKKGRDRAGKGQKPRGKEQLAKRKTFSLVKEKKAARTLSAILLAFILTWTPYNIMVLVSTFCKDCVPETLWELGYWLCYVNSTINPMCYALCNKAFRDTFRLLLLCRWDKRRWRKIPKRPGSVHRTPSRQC
RIPK2: Receptor-interacting serine/threonine-protein kinase 2 (RIPK2, Homo sapiens, UniProt O43353)
Chain of UniProt O00329 (whole entry, looked up): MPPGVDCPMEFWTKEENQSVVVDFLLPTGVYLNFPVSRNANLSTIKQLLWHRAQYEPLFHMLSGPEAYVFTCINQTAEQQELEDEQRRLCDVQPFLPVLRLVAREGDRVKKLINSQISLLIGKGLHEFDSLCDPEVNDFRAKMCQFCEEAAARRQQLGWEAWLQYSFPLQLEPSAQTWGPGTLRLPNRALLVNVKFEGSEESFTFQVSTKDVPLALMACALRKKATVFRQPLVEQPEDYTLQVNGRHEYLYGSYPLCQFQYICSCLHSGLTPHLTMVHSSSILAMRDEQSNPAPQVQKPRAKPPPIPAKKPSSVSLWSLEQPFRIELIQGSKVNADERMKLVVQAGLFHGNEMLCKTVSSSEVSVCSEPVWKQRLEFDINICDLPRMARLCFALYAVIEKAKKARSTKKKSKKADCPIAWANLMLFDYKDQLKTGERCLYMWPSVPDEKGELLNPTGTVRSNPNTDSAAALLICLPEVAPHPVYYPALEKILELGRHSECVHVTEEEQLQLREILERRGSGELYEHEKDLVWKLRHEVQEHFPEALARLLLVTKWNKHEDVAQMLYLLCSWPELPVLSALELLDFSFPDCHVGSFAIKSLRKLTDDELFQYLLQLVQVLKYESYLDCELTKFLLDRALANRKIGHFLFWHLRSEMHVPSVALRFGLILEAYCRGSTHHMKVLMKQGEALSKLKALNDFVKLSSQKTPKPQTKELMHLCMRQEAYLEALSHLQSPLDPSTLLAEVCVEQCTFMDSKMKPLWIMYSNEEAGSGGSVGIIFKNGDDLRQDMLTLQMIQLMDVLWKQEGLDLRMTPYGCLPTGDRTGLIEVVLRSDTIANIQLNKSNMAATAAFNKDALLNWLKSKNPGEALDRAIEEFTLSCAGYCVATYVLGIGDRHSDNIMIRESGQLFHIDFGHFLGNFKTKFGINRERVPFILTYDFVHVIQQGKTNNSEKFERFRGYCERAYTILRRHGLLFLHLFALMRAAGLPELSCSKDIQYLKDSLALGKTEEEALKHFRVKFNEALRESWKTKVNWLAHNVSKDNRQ
Chain of UniProt O43353 (whole entry, looked up): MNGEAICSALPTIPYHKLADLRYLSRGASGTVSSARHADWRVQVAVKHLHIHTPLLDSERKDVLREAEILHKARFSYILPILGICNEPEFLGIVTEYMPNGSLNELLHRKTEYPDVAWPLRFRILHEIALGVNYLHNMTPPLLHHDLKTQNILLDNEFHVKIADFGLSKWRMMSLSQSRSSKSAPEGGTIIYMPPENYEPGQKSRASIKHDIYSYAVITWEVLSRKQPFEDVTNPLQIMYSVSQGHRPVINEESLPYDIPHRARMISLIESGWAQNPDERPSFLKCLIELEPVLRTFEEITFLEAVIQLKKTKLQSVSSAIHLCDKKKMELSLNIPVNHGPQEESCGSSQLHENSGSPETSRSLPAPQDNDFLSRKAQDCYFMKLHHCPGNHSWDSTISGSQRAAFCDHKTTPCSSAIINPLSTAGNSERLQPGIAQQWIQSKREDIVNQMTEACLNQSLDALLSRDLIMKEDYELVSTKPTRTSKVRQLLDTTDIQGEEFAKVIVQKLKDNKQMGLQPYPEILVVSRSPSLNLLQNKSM

Structure (SMILES)	tested on	assay	test system	setting	endpoint	result
Cc1nc(NC(=O)N2CCCC2)sc1-c1csc(C(C)(C)C)n1	PIK3CA	enzyme activity, inhibitor, TR-FRET			IC50	1560 nM
COc1cc2nccc(Oc3ccc(NC(=O)NC4CC4)c(Cl)c3)c2cc1C(N)=O	Vascular endothelial growth factor receptor 1 (FLT1, Homo sapiens, UniProt P17948)	enzyme activity, inhibitor			IC50	3 nM
CCOC(=O)c1ccc2c(c1)n(CC)[c]([Au-]([Cl])([Cl])[Cl])[n+]2CC	Thioredoxin reductase (trxB, Escherichia coli, UniProt P0A9P4)	enzyme activity, inhibitor, absorbance		with preincubation	IC50	332 nM
CC[C@H](C)[C@@H]1NC(=O)[C@H](Cc2c[nH]c3ccccc23)NC(=O)CNC(=O)c2cc3cc(c2)C(=O)NC[C@@H](C(=O)N[C@H](CCCNC(=N)N)C(=O)NCCC(=O)N[C@@H](CCCCN)C(N)=O)NC(=O)[C@H](CCCNC(=N)N)NC(=O)[C@H](CCCNC(=N)N)NC(=O)[C@H](CCCNC(=N)N)NC(=O)[C@H](Cc2ccc4ccccc4c2)NC(=O)[C@H](Cc2ccccc2)NC(=O)[C@H](CNC3=O)NC(=O)[C@H](Cc2ccc(O)cc2)NC1=O	NF-kappa-B essential modulator, with IKK-beta (IKBKG, Homo sapiens, UniProt Q9Y6K9)	inhibitor, HTRF			IC50	1300 ± 400 nM
CCCCCCCCCCCCCCCCC1=C[C@H](C(=O)O)[C@H]2C(=O)C(C(=O)OC)=C(CCCCCCCCCCCCCCCC)[C@H]2[C@H]1C(=O)OC	protein kinase A	inhibitor			IC50	> 50000 nM
CC(C)CN(CC(=O)NCCCCCCNC(=O)c1ccc(-c2n[nH]c3ccccc23)cc1)C(=O)CNC(=O)C1COc2ccccc2O1 (stereo not drawn)	MAPK10	enzyme activity, inhibitor			IC50	63.4 nM
O=C(O)c1c(O)cccc1/C=C/c1ccc(O)cc1	Tyrosine-protein phosphatase non-receptor type 1 (PTPN1, Homo sapiens, UniProt P18031)	enzyme activity, inhibitor, absorbance			IC50	> 100000 nM
O=S(=O)(Oc1ccccc1F)C1CC2OC1C(c1ccc(O)cc1)=C2c1ccc(O)cc1 (racemic)	ESR2	reporter gene, antagonist, ERE luciferase reporter	HepG2 transfected with ERβ	added: estradiol 1 µM	IC50	> 10000 nM
CC1OC(Oc2c(-c3ccc(O)cc3)oc3cc(O)cc(O)c3c2=O)C(OC(=O)C=Cc2ccc(O)cc2)C(O)C1OC(=O)C=Cc1ccc(O)cc1 (stereo not drawn)	C-C chemokine receptor type 1 (CCR1, Homo sapiens, UniProt P32246)	calcium flux, antagonist	293FT GCaMP6 transfected		IC50	> 100000 nM
CC(=O)N[C@@H](Cc1c[nH]c2ccccc12)C(=O)N[C@@H](Cc1c[nH]c2ccccc12)C(=O)N[C@@H](Cc1c[nH]c2ccccc12)C(=O)N[C@@H](Cc1c[nH]c2ccccc12)C(=O)N[C@@H](Cc1c[nH]c2ccccc12)C(=O)N[C@@H](Cc1c[nH]c2ccccc12)C(=O)N[C@@H](Cc1c[nH]c2ccccc12)C(=O)NCCCC[C@@H]1NC(=O)[C@H](CCCNC(=N)N)NC(=O)[C@H](CCCNC(=N)N)NC(=O)[C@H](CCCNC(=N)N)NC(=O)[C@H](CCCNC(=N)N)NC(=O)[C@H](CCCNC(=N)N)NC1=O	Serine/threonine-protein kinase B-raf (BRAF, Homo sapiens, UniProt P15056)	enzyme activity, inhibitor			IC50	2340 nM
N=C(N)NCCC[C@H](NC(=O)[C@H](CC(=O)O)NC(=O)[C@@H]1CSCCC(=O)NCC(=O)N[C@@H](Cc2c[nH]cn2)C(=O)N[C@H](Cc2ccccc2)C(=O)N[C@@H](CCCNC(=N)N)C(=O)N[C@@H](Cc2c[nH]c3ccccc23)C(=O)N1)C(=O)N[C@@H](Cc1ccccc1)C(=O)NCC(N)=O	Melanocyte-stimulating hormone receptor (MC1R, Homo sapiens, UniProt Q01726)	ligand displacement, radioligand			IC50	330 nM
COc1cccc(Cc2cc(CCC(=O)NCCNc3cccc4c(S(=O)(=O)O)cccc34)nn(CC(=O)Nc3ccc(Br)cc3)c2=O)c1	fMet-Leu-Phe receptor (FPR1, Homo sapiens, UniProt P21462)	calcium signal, antagonist			IC50	2 nM
CC1=NNB(O)c2ccccc21	ELANE	enzyme activity, inhibitor, fluorescence			IC50	48000 nM
CC(=O)O[C@@H]1[C@@H](OC(C)=O)[C@H](Sc2sc(C(=O)c3ccc(Br)cc3)c(N)c2-c2nc3ccccc3s2)OC[C@H]1OC(C)=O	Ubiquitin carboxyl-terminal hydrolase 7 (USP7, Homo sapiens, UniProt Q93009)				IC50	10200 nM
CC(=O)c1cnc(N)nc1N1CC[C@H]1c1nn2ccc(Cl)c2c(=O)n1-c1ccccc1	Phosphatidylinositol 4,5-bisphosphate 3-kinase catalytic subunit delta isoform (PIK3CD, Homo sapiens, UniProt O00329)	AKT phosphorylation, inhibitor	Ramos	added: anti-IgM	IC50	25 nM and 10 to 25 nM
N#Cc1ccc(N(Cc2ccc(OS(N)(=O)=O)cc2Br)n2cnnc2)cc1	STS	enzyme activity, inhibitor	JEG-3 intact monolayers		IC50	10 to 100 nM
COc1cc(O)ccc1CC[C@H](c1ccc(O)cc1)c1cc2c(c(C)c1O)O[C@@H](c1ccc(O)cc1)CC2	Polyunsaturated fatty acid 5-lipoxygenase (ALOX5, Homo sapiens, UniProt P09917)	5-LO product formation	human PMNL	added: A23187 plus arachidonic acid	IC50	13400 nM
O=C(CCc1nc2c(cnn2-c2ccccc2)c(=O)[nH]1)N1CCC2CCCCC2C1 (stereo not drawn)	DNA gyrase subunit B (gyrB, Escherichia coli, UniProt P0AES6)	enzyme activity, inhibitor			IC50	13500 ± 300 nM
COc1ccc(OC)c(C(=O)/C=C/c2cccc3ccccc23)c1	Broad substrate specificity ATP-binding cassette transporter ABCG2 (ABCG2, Homo sapiens, UniProt Q9UNQ0)	mitoxantrone efflux, inhibitor, flow cytometry	HEK293 transfected	30 min, 37 °C, added: mitoxantrone 5 µM	IC50	3500 nM
C=C(C)C(=O)Nc1ccc2nc(NCCCCCN(C)C)nc(NCCCCCCN(C)C)c2c1	Histone-lysine N-methyltransferase SETDB1 (SETDB1, Homo sapiens, UniProt Q15047)	enzyme activity, inhibitor			IC50	54800 nM
CC(=O)c1c(C)c2cnc(Nc3ccc(N4CCNCC4)cn3)nc2n(C2CCCC2)c1=O	Dual specificity protein kinase TTK (TTK, Homo sapiens, UniProt P33981)	enzyme activity, inhibitor, radiometric			IC50	500 nM
CCCn1c(=O)c2[nH]c(-c3ccc(OCC(=O)NCCNC(=O)CCCCCNC(=O)CCCCCNS(=O)(=O)c4cccc5c(N(C)C)cccc45)cc3)nc2n(CCC)c1=O	Adenosine receptor A1 (ADORA1, Homo sapiens, UniProt P30542)	ligand displacement in cells, radioligand			IC50	186 nM
CC(C)C[C@H](NC(=O)[C@H](CC(N)=O)NC(=O)[C@H](CC(C)C)NC(=O)[C@@H](NC(=O)[C@@H](NC(=O)[C@@H]1CCCN1C(=O)[C@H](CCCNC(=N)N)NC(=O)[C@H](CCCCN)NC(=O)[C@@H]1CCCN1)[C@@H](C)O)[C@@H](C)O)C(=O)N[C@@H](Cc1ccccc1)C(N)=O	MAPK10	enzyme activity, inhibitor, radiometric		pH 7.5	IC50	2600 nM
CCCCOc1ccc(C(=O)OCCN2CC=CCC2)cc1	CHRM1	inositol phosphate accumulation, antagonist, Schild analysis	CHO	added: carbachol	Kb	39.8 µM

Structure (SMILES)	tested on	assay	test system	setting	endpoint	result
Fc1ccc(-c2nc[nH]c2-c2ccnc(Nc3ccc(N4CCOCC4)cc3)c2)cc1	MAPK10	enzyme activity, inhibitor, ELISA			IC50	31 nM
COc1ccc(C(=O)/C=C(\O)C(F)(F)C(F)(F)F)cn1	Formate-nitrite transporter (Plasmodium vivax, UniProt A0A1G4GWI6)				IC50	250 ± 20 nM
O=C1Nc2cc(Cl)ccc2/C1=C\c1c(Cl)cccc1Cl	alpha-glucosidase	inhibitor		added: glucopyranoside substrate	IC50	38400 nM
NS(=O)(=O)Oc1ccc2c3c(c(=O)oc2c1)CCCCCC3	STS	enzyme activity in cells, inhibitor			IC50	0.9 nM
O=C(/C=C/c1ccc(Cl)cc1Cl)NO	Polyamine deacetylase HDAC10 (hdac10, Danio rerio, UniProt F1QCV2)				IC50	112 ± 19 nM
O=c1c2ccccc2sn1-c1ccccc1	Histone deacetylase 4 (HDAC4, Homo sapiens, UniProt P56524)	enzyme activity, inhibitor			IC50	4120 nM
CC[C@H]1[C@@H](O)[C@@H]2[C@H](CC[C@]3(C)[C@@H]([C@H](C)CCOS(=O)(=O)[O-])CC[C@@H]23)[C@@]2(C)CC[C@@H](O)C[C@@H]12.[Na+]			ob/ob NASH mice, plasma	oral, 10 mg/kg once daily, 8 wk	plasma AST	257 ± 42.3 U/L
CC1(C)C2CC3C(c4ccccc4)c4c(O)c(C=O)c(O)c(C=O)c4OC3(C)C1C2 (single isomer, unassigned; (+))	ATP-dependent 6-phosphofructokinase, platelet type (PFKP, Homo sapiens, UniProt Q01813)	enzyme activity, inhibitor		lysate	IC50	410 nM
CC(C)c1ccc(C2C(C(=O)c3ccc(F)cc3)=C(O)C(=O)N2CCCCCC(=O)O)cc1 (stereo not drawn)	P2Y purinoceptor 14 (P2RY14, Homo sapiens, UniProt Q15391)	antagonist			IC50	45.5 nM
Cc1cc(/C=C2\SC(=S)NC2=O)ccc1O	PIK3CA	enzyme activity, inhibitor, radiometric			IC50	150 nM
CNC(=O)C1CCN(c2ccccc2NC(=O)c2ccc(-c3cc(O)ccc3C)cc2)CC1	Tyrosine-protein kinase Fgr (FGR, Homo sapiens, UniProt P09769)	target engagement, NanoBRET	intact cells		IC50	> 50000 nM
Cn1c(=O)n(CCCO)c(=O)c2c1nc(Oc1cccc(OC(F)(F)F)c1)n2Cc1ccc(C2(C(F)(F)F)N=N2)cc1	TRPC1/TRPC5 (TRPC1/TRPC5, Homo sapiens, UniProt P48995+Q9UL62)	calcium influx, inhibitor, Fura-2	HEK T-REx expressing TRPC1/TRPC5	added: englerin A 30 nM	IC50	6.1 nM
Cc1cc(NC(=O)c2cccc(-n3cc(NC(=O)Nc4ccc(F)cc4)cn3)c2)ccn1	Mitogen-activated protein kinase 10, isoform alpha-1 (MAPK10, Homo sapiens, UniProt P53779, L144I)	enzyme activity, inhibitor, HTRF		added: 1.25 µM ATP	IC50	2040 ± 449 nM
Fc1cc2scnc2cc1Nc1ncnc2sc(C3=CCCNC3)cc12	RIPK2	enzyme activity, inhibitor			IC50	9 nM
Cc1nc(/N=N/c2cc3c(S(=O)(=O)O)cc([N+](=O)[O-])cc3cc2S(=O)(=O)O)c(COP(=O)(O)O)c(C=O)c1O	ELANE	enzyme activity, inhibitor, absorbance		pH 7.4	IC50	21900 nM
C=CCNC(=O)NC1CC=C(c2cc3c(Nc4cc5ncsc5cc4F)ncnc3s2)CC1 (racemic)	RIPK2	enzyme activity, inhibitor			IC50	7 nM
Nc1ncnc2c1ncn2[C@@H]1O[C@H](COc2cncc(CCC(=O)c3ccccc3C(=O)O)c2)[C@@H](O)[C@H]1O	2-succinylbenzoate--CoA ligase (menE, Escherichia coli, UniProt P37353)	enzyme activity, inhibitor, MenB-MenE coupled			IC50	11500 ± 800 nM
COc1ccc(/C=C/c2nc3c(N)ncnc3[nH]2)cc1	Adenosine receptor A2a (ADORA2A, Homo sapiens, UniProt P29274)	cAMP, ELISA			IC50	> 374000 nM
COc1ccc(C2NC(=O)NC(C)=C2C(C)=O)cc1 (stereo not drawn)	Pancreatic alpha-amylase (AMY2, Sus scrofa, UniProt P00690)	enzyme activity, inhibitor			IC50	141000 nM
Nc1cccc2c1[nH]c(=O)n2C1CCN(C(=O)Nc2ccc(I)cc2)CC1	N-glycosylase/DNA lyase (OGG1, Homo sapiens, UniProt O15527)	enzyme activity, inhibitor			IC50	750 nM
CN(Cc1cc(C2CC2)on1)C(=O)c1cccc(-c2ccc(Cl)cc2)c1	Acetyl-CoA synthetase (Cryptococcus neoformans, UniProt J9VFT1)				IC50	3000 nM
COc1ccc(C=CC(=O)c2cccc(O)c2)cc1	ESR2	coactivator recruitment, antagonist			IC50	620 nM
CCCCCCOc1ccc(C(=O)OCCN2CC=CCC2)cc1	CHRM1	inositol phosphate accumulation, antagonist, Schild analysis	CHO	added: carbachol	Kb	0.0331 µM
Cc1cc(N2CCC(CO)(C3CC3)C2=O)cc(C(=O)NCc2cc(F)cc(-c3cnn(C)c3)c2)n1 (stereo not drawn)	Bifunctional glutamate/proline--tRNA ligase (EPRS1, Homo sapiens, UniProt P07814)	enzyme activity, inhibitor, absorbance			IC50	1400 nM
